Experimental data of several laboratories.
Each numbered part is a random draw from the data of one study; scales do not carry over between parts. Substitutions count along the parent as printed.

Series 1
Target: Fragile X messenger ribonucleoprotein 1, C-terminal low-complexity region (Fmr1, Mus musculus, UniProt P35922)
Method: RNA Bind-n-Seq
Form: RNA
Matrix: in vitro
Tested at: 200 nM
Notes: whole 134-nt RNA, ends assumed
With: 150 mM KCl
Reference: input library
Reading: higher = stronger binding
Constant ends, left off below: GGGAGUUCUACAGUCCGACGAUC … UGGAAUUCUCGGGUGUCAAGG
The log2 enrichment of `CAAGUCCUGUGCUACACAUCGUAUGUACCGAAUCGGGGUGGGGAAAGGGGUGGGGAAAGUAUUAUGUUACGCCGUUCGGAUCUGCACUUC` is reported as 1.34.
The log2 enrichment of `CAAGUCCUGUGCUACACAUCGUAUGUACCGAAUCGGAAAAAAAGGUUUUUGGUGGAAAGUAUUAUGUUACGCCGUUCGGAUCUGCACUUC` is reported as -0.988.
`CCUGUGCUACACAUCGUAUGUACCGAAUCGGCCCCCCCGGGGCCCCCCCGGCCCCCCCGGAAAGUAUUAUGUUACGCCGUUCGGAUCUGC` has a log2 enrichment of -0.26.
The log2 enrichment of `UGGGAGGUGGAUUUUGUUUAUUUUUUUAGCUCAUUUCCAGGGGUGGGAAUUUUUUUUUCAUAUGUGUCAUGAAUAAAGUUGUUUUUGAAA` is reported as 0.217.
`CAAGUCCUGUGCUACACAUCGUAUGUACCGAAUCGGUGGAAAAAAAGGAAAAAGGAAAGUAUUAUGUUACGCCGUUCGGAUCUGCACUUC` has a log2 enrichment of -0.503.
`CAAGUCCUGUGCUACACAUCGUAUGUACCGAAUCGGGUUUGGGUUUGGGAAAGGGAAAGUAUUAUGUUACGCCGUUCGGAUCUGCACUUC` has a log2 enrichment of 0.896.
`UCAAGUCCUGUGCUACACAUCGUAUGUACCGAAUCGGUGGAAAGGUUUUUUUGGAAAGUAUUAUGUUACGCCGUUCGGAUCUGCACUUCC` has a log2 enrichment of -0.629.
The log2 enrichment of `AAGUCCUGUGCUACACAUCGUAUGUACCGAAUCGGUUUUGGUUUUGGGUUUUGGGGAAAGUAUUAUGUUACGCCGUUCGGAUCUGCACUU` is reported as -0.432.

Series 2
Target: CCND2, cyclin fold, Cln2 fusion (human)
Method: yeast growth competition, sequencing
Matrix: yeast
Notes: weak parent motif
Reference: not given
Reading: higher = stronger binding
Starting sequence: PKMYT1 docking peptide (human); SFEPRNLLSLFED; partner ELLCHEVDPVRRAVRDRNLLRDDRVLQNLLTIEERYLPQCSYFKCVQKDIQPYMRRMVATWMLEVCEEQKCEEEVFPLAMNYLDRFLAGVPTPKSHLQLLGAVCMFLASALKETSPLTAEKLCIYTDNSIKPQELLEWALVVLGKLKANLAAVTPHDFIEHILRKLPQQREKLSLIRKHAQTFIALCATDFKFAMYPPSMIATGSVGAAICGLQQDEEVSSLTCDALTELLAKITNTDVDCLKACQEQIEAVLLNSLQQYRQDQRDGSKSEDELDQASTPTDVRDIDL
`P4I` — result for “normalised enrichment score”: -0.381.
For `L10F`, “normalised enrichment score” read -0.125.
`L8Q`: “normalised enrichment score” -0.177.
For `E3W`, “normalised enrichment score” read 0.0185.
`R5K` — result for “normalised enrichment score”: 0.153.
For `D13T`, “normalised enrichment score” read -0.0335.
`P4N` — result for “normalised enrichment score”: -0.0411.
Under “normalised enrichment score”, `N6Q` is recorded as 0.16.
`E12G`: “normalised enrichment score” -0.349.
For `L7Y`, “normalised enrichment score” read -0.0338.
For `D13I`, “normalised enrichment score” read 0.0691.
`N6R`: “normalised enrichment score” 0.139.
`D13H`: “normalised enrichment score” -0.611.
`N6K` — result for “normalised enrichment score”: 0.156.

Series 3
Target: Interferon regulatory factor 5, full length, phosphomimetic (IRF5, Homo sapiens, UniProt Q13568-2, residues 1-514, K96S/S451D/S453D/S456D/S462D)
Method: protein-binding microarray
Form: double-stranded DNA, one strand shown
Matrix: in vitro
Tested at: 250 nM
Notes: 60-bp whole probe
With: salmon DNA 0.4 mg/ml
Reference: random background probes
Reading: higher = stronger binding
Constant ends, left off below: GCCTAGCAC … GTCTTGATTCGCTTGACGCTGCTG
`GACGGTTCCGCTTTCGGGACGTGCTAG` has a log fluorescence of 4.17 z-score.
With `TTAGGTTCCGGTTTCGCTTAGTGCTAG` the log fluorescence was 6.41 z-score.
For `TTCTCTTTCCTTCTTGATGCGTGCTAG`, the log fluorescence was 1.61 z-score.
With `TTAGGTTTCGGGCATCGGTTAGTGCTA` the log fluorescence was 7.06 z-score.
The log fluorescence of `TTTTTTTTCTGATCCATTTTGTGCTAG` is reported as 1.86 z-score.
The log fluorescence of `TTAGGTATCTTACTGCTTTAGTGCTAG` is reported as 0.0333 z-score.
The log fluorescence of `TTCTAATTTACTTTGGTTGGGTGCTAG` is reported as 0.748 z-score.
`GATGGTATCGGACTGGGGACGTGCTAG` has a log fluorescence of 1.39 z-score.
With `TTAGGACTGGACTATCGGGTAGTGCTA` the log fluorescence was 1.87 z-score.

Single results of other studies
For `PhoQ, residues 284 288 289 292 302 303 TNASYF`, the fold induction was 12.6 (PhoP, residues 12 14 15 18 19 LHTVM (Escherichia coli, UniProt P23836); Sort-seq, refers to: YFP reporter; E. coli; PhoQ-PhoP variant library, with: 10 µM Mg2+; reference: high Mg2+ state, higher = stronger signaling).

Excerpt of the above (series 3):
For `TTCTCTTTCCTTCTTGATGCGTGCTAG`, the log fluorescence was 1.61 z-score.
`GACGGTTCCGCTTTCGGGACGTGCTAG` has a log fluorescence of 4.17 z-score.
